Assay results pooled from the literature.
Numbered parts are unrelated; each lists some results of a single study. Several values in a cell are separate wells, animals, samples, runs or records.
UniProt P16591, sequence (whole entry, looked up): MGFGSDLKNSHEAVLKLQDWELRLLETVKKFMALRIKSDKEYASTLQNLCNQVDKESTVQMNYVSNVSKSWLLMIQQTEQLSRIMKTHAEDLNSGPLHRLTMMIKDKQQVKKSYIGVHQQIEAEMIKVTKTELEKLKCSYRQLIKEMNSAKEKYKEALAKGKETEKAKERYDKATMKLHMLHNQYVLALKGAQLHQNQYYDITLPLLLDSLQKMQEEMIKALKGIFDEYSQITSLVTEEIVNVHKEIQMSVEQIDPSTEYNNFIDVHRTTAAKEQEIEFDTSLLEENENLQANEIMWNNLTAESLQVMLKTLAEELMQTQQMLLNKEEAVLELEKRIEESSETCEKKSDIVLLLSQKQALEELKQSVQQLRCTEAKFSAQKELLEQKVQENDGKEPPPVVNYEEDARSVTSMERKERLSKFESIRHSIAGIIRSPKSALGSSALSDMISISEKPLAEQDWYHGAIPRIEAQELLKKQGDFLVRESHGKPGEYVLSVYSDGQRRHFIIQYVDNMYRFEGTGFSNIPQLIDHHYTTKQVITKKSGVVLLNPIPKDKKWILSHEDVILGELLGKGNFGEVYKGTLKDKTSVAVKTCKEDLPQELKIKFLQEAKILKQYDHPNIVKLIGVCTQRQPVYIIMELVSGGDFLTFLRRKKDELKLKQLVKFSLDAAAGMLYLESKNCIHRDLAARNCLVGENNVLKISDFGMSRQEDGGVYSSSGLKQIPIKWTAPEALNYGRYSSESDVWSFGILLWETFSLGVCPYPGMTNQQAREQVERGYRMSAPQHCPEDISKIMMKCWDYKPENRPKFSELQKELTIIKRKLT

Block 1
Compound: CCCCN(CCCC)C(=O)CN1C[C@@H](c2cc(OC)c3c(c2)OCO3)[C@H](C(=O)O)[C@H]1CC(C)(C)CCC
Effect on: cell-free assay
Technique: competition with immobilised ligand
Concentration: 1 µM
Quantity: remaining binding
target = Transient receptor potential cation channel subfamily M member 6 (TRPM6, Homo sapiens, UniProt Q9BX84); result = 90.4%
target = Serine/threonine-protein kinase MRCK beta (CDC42BPB, Homo sapiens, UniProt Q9Y5S2); result = 100%
target = Beta-adrenergic receptor kinase 1 (GRK2, Homo sapiens, UniProt P25098); result = 97.8%
target = Mitotic checkpoint serine/threonine-protein kinase BUB1 (BUB1, Homo sapiens, UniProt O43683); result = 94.9%
target = Mast/stem cell growth factor receptor Kit (KIT, Homo sapiens, UniProt P10721); result = 100%
target = Membrane-associated tyrosine- and threonine-specific cdc2-inhibitory kinase (PKMYT1, Homo sapiens, UniProt Q99640); result = 100%
target = Serine/threonine-protein kinase RIO3 (RIOK3, Homo sapiens, UniProt O14730); result = 100%
target = Ankyrin repeat and protein kinase domain-containing protein 1 (ANKK1, Homo sapiens, UniProt Q8NFD2); result = 95.7%
target = Testis-specific serine/threonine-protein kinase 1 (TSSK1B, Homo sapiens, UniProt Q9BXA7); result = 100%
target = Receptor-type tyrosine-protein kinase FLT3 (FLT3, Homo sapiens, UniProt P36888, N841I); result = 96.1%
target = Receptor-type tyrosine-protein kinase FLT3 (FLT3, Homo sapiens, UniProt P36888, R834Q); result = 80.6%
target = Tyrosine-protein kinase Fer (FER, Homo sapiens, UniProt P16591); result = 100%
target = cAMP-dependent protein kinase catalytic subunit PRKX (PRKX, Homo sapiens, UniProt P51817); result = 87.7%
target = Cyclin-dependent kinase 13 (CDK13, Homo sapiens, UniProt Q14004); result = 100%
target = Fibroblast growth factor receptor 3 (FGFR3, Homo sapiens, UniProt P22607, G697C); result = 94%
target = Dual specificity tyrosine-phosphorylation-regulated kinase 1B (DYRK1B, Homo sapiens, UniProt Q9Y463); result = 95%
target = MAP kinase-activated protein kinase 2 (MAPKAPK2, Homo sapiens, UniProt P49137); result = 84.2%
target = Mitogen-activated protein kinase kinase kinase 6 (MAP3K6, Homo sapiens, UniProt O95382); result = 100%
target = Tyrosine-protein kinase ABL1, phosphorylated (ABL1, Homo sapiens, UniProt P00519, M351T); result = 100%
target = Receptor-type tyrosine-protein kinase FLT3 (FLT3, Homo sapiens, UniProt P36888, D835H); result = 100%
target = Calcium/calmodulin-dependent protein kinase type 1D (CAMK1D, Homo sapiens, UniProt Q8IU85); result = 94.4%
target = Activin receptor type-2A (ACVR2A, Homo sapiens, UniProt P27037); result = 85.1%
target = Serine/threonine-protein kinase Chk1 (CHEK1, Homo sapiens, UniProt O14757); result = 100%

Block 2
Compound: C=CCc1ccc(O)c(-c2ccc(O)c(CC=C)c2)c1
Effect on: chloride current
Quantity: normalized current
ANO1 del476-501: Anoctamin-1 (ANO1, Homo sapiens, UniProt Q5XXA6, del476-501)
UniProt Q5XXA6, sequence (whole entry, unmodified, looked up): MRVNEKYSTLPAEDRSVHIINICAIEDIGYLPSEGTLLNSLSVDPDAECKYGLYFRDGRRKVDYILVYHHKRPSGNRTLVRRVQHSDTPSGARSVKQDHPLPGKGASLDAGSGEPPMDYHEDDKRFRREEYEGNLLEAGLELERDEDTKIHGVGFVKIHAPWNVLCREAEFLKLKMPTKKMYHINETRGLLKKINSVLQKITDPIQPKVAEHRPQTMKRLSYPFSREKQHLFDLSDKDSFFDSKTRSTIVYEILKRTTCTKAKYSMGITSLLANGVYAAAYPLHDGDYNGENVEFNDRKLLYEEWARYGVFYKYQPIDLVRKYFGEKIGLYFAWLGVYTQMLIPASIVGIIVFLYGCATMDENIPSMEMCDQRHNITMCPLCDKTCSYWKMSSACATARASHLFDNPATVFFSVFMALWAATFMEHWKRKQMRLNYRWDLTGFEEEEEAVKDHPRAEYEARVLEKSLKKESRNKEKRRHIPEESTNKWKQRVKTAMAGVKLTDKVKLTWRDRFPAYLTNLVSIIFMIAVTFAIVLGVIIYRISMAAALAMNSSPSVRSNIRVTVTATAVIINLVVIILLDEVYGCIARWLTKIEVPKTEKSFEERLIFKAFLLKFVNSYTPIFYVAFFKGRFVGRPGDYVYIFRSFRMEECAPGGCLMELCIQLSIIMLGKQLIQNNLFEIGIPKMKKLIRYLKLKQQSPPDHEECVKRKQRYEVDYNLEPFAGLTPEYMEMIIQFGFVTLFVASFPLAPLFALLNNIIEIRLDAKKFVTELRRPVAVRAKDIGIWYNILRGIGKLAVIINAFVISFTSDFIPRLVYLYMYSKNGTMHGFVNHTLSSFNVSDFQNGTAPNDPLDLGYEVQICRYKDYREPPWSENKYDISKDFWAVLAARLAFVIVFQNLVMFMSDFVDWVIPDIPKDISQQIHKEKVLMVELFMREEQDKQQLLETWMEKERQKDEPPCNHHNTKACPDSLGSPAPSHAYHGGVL
ANO1 del476-501/F628A: Anoctamin-1 (ANO1, Homo sapiens, UniProt Q5XXA6, del476-501/F628A)
target = Anoctamin-1 (ANO1, Homo sapiens, UniProt Q5XXA6, del476-501/R541A); technique = inside-out patch clamp; concentration = 10 µM; notes = membrane voltage -20 mV; result = -0.12
target = ANO1 del476-501; technique = whole-cell voltage clamp; concentration = 10 µM; notes = wild type, I-V at 20 mV; together with = 4 µM Ca2+; result = 0.0533
target = ANO1 del476-501/F628A; technique = whole-cell voltage clamp; concentration = 10 µM; notes = I-V at 20 mV; together with = 4 µM Ca2+; result = 0.111
target = ANO1 del476-501/F628A; technique = whole-cell voltage clamp; concentration = 100 µM; notes = concentration-response at 20 mV; together with = 4 µM Ca2+; result = 0.0313
target = ANO1 del476-501/F628A; technique = whole-cell voltage clamp; concentration = 10 µM; notes = concentration-response at -20 mV; together with = 4 µM Ca2+; result = -0.154
target = ANO1 del476-501; technique = whole-cell voltage clamp; concentration = 3 µM; notes = wild type, I-V at -40 mV; together with = 4 µM Ca2+; result = -0.291
target = ANO1 del476-501/F628A; technique = whole-cell voltage clamp; concentration = 100 µM; notes = I-V at 80 mV; together with = 4 µM Ca2+; result = 0.18

Block 3
Target: DNA polymerase theta, ATPase domain (POLQ, Homo sapiens, UniProt O75417)
UniProt O75417, sequence (whole entry, unmodified, looked up): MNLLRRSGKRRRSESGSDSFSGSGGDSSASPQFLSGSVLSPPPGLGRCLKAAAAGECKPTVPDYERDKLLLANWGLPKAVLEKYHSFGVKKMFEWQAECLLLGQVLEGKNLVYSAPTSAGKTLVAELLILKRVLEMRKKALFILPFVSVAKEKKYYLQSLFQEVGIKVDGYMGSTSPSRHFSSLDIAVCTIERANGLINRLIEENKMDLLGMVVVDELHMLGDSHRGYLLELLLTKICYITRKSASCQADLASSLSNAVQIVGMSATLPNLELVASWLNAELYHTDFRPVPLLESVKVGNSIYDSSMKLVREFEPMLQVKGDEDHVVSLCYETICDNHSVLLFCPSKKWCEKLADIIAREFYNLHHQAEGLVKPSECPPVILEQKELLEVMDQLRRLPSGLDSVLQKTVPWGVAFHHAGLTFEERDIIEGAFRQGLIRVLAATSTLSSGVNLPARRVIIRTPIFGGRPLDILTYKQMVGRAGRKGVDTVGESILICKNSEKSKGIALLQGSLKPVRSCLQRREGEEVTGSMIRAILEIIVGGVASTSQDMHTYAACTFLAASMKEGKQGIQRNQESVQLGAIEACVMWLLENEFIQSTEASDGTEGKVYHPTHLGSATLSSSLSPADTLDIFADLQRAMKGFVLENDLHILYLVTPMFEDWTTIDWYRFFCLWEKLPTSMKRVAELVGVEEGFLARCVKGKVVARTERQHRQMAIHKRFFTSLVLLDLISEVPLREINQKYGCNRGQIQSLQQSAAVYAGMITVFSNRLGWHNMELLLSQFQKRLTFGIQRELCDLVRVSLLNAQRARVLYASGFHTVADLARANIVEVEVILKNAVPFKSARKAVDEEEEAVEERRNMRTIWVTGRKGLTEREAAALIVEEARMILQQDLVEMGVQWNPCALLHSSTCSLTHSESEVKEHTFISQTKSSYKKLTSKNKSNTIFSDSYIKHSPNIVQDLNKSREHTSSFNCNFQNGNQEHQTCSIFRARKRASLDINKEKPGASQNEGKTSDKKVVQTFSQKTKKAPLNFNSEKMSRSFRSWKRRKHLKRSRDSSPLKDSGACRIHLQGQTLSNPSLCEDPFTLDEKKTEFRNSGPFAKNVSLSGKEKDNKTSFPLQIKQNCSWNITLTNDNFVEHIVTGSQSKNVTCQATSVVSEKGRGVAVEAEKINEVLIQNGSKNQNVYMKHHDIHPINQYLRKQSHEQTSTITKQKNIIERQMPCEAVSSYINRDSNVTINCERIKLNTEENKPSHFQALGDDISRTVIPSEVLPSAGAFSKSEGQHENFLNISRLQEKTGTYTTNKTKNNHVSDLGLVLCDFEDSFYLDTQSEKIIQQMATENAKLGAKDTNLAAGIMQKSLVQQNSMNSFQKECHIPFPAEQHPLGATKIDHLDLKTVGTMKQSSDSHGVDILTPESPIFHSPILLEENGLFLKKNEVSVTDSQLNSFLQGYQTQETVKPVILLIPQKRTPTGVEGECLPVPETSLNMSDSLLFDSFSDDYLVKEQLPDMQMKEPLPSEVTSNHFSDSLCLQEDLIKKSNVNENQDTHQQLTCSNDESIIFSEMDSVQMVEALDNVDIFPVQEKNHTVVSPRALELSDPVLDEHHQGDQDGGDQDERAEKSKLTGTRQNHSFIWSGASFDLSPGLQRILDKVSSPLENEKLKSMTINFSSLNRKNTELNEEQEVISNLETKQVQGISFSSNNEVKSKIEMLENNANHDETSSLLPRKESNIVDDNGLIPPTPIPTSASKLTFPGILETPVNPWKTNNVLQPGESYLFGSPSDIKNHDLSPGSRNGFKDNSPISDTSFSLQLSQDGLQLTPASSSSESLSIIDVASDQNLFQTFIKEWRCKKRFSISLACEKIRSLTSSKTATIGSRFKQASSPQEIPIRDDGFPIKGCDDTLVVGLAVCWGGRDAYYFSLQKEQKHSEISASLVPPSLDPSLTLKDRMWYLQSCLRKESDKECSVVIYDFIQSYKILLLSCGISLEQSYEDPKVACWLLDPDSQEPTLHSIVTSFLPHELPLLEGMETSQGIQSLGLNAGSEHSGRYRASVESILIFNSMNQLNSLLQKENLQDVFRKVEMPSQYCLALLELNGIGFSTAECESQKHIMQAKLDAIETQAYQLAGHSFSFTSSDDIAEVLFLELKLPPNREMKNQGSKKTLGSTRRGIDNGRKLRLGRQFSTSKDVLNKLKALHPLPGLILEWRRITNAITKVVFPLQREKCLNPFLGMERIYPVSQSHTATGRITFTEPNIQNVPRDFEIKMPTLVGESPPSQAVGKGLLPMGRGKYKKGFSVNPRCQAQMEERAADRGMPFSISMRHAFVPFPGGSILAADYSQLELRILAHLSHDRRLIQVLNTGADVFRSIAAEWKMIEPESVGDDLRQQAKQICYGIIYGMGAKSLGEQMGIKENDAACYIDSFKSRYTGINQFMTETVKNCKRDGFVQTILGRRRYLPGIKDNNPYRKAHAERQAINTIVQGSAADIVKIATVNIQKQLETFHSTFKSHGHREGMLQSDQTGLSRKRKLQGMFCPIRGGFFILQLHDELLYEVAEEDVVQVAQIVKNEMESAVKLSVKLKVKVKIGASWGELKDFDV
Effect on: enzyme activity
Action: inhibitor
Concentration: 77 µM
Baseline: untreated
Quantity: remaining activity
SMILES = O=C1c2ccccc2C(=O)C1c1ccccc1; result = 99.6% and 92.1%
SMILES = O=C(NCCO[N+](=O)[O-])c1cccnc1; result = 96.3%
SMILES = CC(=O)N[C@@H](Cc1c[nH]c2ccccc12)C(=O)OCc1cc(C(F)(F)F)cc(C(F)(F)F)c1; result = 104%
SMILES = CCOC(=O)O[C@]1(C(=O)COC(=O)CC)CC[C@H]2[C@@H]3CCC4=CC(=O)C=C[C@]4(C)[C@H]3[C@@H](O)C[C@@]21C; result = 98.2%
SMILES = CN=c1nc(-c2ccccc2)n(-c2ccccc2)s1; result = 100%
SMILES = CC1(C)O[C@H]2CC(=O)OC[C@]23[C@H]2CC[C@@]4(C)[C@H](c5ccoc5)OC(=O)[C@H]5O[C@]54[C@]2(C)C(=O)C[C@@H]13; result = 86%
SMILES = COC(=O)c1ccc2c(C(=Nc3ccc(N(C)C(=O)CN4CCN(C)CC4)cc3)c3ccccc3)c(O)[nH]c2c1; result = 76.4%
SMILES = CCOc1cc(N2CCC(O)CC2)ccc1Nc1ncc2c(n1)N(C)c1ccccc1C(=O)N2C; result = 103%

Block 4
Target: Beta-1 adrenergic receptor (ADRB1, Homo sapiens, UniProt P08588)
UniProt P08588, sequence (whole entry, looked up): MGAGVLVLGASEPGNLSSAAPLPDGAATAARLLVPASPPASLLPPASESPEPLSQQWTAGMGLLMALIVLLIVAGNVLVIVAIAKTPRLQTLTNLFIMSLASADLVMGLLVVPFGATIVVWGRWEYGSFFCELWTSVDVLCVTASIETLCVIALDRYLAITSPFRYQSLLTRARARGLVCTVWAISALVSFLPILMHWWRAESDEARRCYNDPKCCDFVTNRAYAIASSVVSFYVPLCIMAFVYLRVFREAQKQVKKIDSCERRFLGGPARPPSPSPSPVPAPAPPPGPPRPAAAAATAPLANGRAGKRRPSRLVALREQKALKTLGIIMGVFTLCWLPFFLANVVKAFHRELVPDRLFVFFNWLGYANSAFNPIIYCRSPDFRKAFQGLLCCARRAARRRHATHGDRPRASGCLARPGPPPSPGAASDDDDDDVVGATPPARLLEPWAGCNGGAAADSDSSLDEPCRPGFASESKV
Action: antagonist
Quantity: IC50
SMILES = COc1ccccc1N1CCN(CCCCN[S+](=O)([O-])c2cccc3c(N(C)C)cccc23)CC1; result = ≥ 100 µM
SMILES = Cc1cc(F)ccc1-c1n[nH]c2ncc(-c3cnn(C)c3)nc12; result = ≥ 100 µM
SMILES = CN(c1ccccc1)c1cc(=O)c2ccnc(NCC3CCOCC3)c2o1; result = ≥ 100 µM
SMILES = Oc1ccccc1N1CCN(c2ccc3ccccc3n2)CC1; result = ≥ 100 µM
SMILES = N#C/C(=C\c1ccc(O)c(O)c1)C(=O)NCCc1ccccc1; result = ≥ 100 µM
SMILES = Cc1cc(F)ccc1-c1n[nH]c2ncc(-c3ccccc3)nc12; result = 35.5 µM
SMILES = COc1ccc(Nc2n[nH]c(C(O)c3ccccc3)n2)cc1OC (stereo not shown); result = ≥ 100 µM
SMILES = C[C@@H]1CN(CC(=O)Nc2ccc3c(c2)Cc2cccc(-c4cc(=O)cc(N5CCOCC5)o4)c2S3)C[C@H](C)O1; result = ≥ 100 µM
SMILES = Cc1cccc2nc(C(=O)N3CCN(c4cccc(Cl)c4)CC3)cn12; result = ≥ 100 µM
SMILES = c1ccc(-c2nc(-c3cnc4ccccc4n3)cs2)cc1; result = ≥ 100 µM
SMILES = O=C1CCCC2=C1C(c1ccc(O)cc1)Nc1ccc(C(=O)c3ccccc3)cc1N2 (stereo not shown); result = ≥ 100 µM

Excerpt of the above (block 2):
target = ANO1 del476-501/F628A; technique = whole-cell voltage clamp; concentration = 10 µM; notes = concentration-response at -20 mV; together with = 4 µM Ca2+; result = -0.154
target = ANO1 del476-501/F628A; technique = whole-cell voltage clamp; concentration = 100 µM; notes = concentration-response at 20 mV; together with = 4 µM Ca2+; result = 0.0313
target = ANO1 del476-501; technique = whole-cell voltage clamp; concentration = 10 µM; notes = wild type, I-V at 20 mV; together with = 4 µM Ca2+; result = 0.0533
target = ANO1 del476-501; technique = whole-cell voltage clamp; concentration = 3 µM; notes = wild type, I-V at -40 mV; together with = 4 µM Ca2+; result = -0.291
target = ANO1 del476-501/F628A; technique = whole-cell voltage clamp; concentration = 100 µM; notes = I-V at 80 mV; together with = 4 µM Ca2+; result = 0.18
target = ANO1 del476-501/F628A; technique = whole-cell voltage clamp; concentration = 10 µM; notes = I-V at 20 mV; together with = 4 µM Ca2+; result = 0.111
target = Anoctamin-1 (ANO1, Homo sapiens, UniProt Q5XXA6, del476-501/R541A); technique = inside-out patch clamp; concentration = 10 µM; notes = membrane voltage -20 mV; result = -0.12
